# Measurements of several laboratories.
# A part holds a random share of what one study measured.

# Sample 1
# Target: Histone acetyltransferase KAT6A, both winged helices, GST fusion (KAT6A, Homo sapiens, UniProt Q92794, residues 1-181)
# Method: protein binding microarray
# Form: double-stranded DNA, one strand shown
# Medium: in vitro
# Concentration: not given
# Setting: 8-mer, flanks averaged, mean of 2 arrays, mostly near background
# Baseline: not given
# Direction: higher = stronger binding
# Target sequence (chain): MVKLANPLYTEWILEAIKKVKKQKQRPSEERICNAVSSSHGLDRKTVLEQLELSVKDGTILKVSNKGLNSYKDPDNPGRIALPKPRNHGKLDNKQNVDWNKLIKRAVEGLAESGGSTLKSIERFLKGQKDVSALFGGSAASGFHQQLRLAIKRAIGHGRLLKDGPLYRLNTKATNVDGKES
Oligonucleotide,E-score
GTTAATGA,-0.138
CGTTTTTA,0.147
CCAGGCGC,0.0989
ATCGGTTG,-0.00278
TAAGTAAA,-0.1
ACCGATGG,-0.018

# Sample 2
# Target: RNA binding protein fox-1 homolog 2, RRM domain, GST-SBP tag (RBFOX2, Homo sapiens, UniProt O43251-10, residues 100-194)
# Method: RNA Bind-n-Seq
# Form: RNA
# Medium: in vitro
# Concentration: 365 nM
# Setting: natural RNA segment, single round, ends assumed
# Baseline: no-protein control
# Direction: higher = stronger binding
# All sequences stand within: GGGAGUUCUACAGUCCGACGAUC … UGGAAUUCUCGGGUGCCAA
# Target sequence (chain): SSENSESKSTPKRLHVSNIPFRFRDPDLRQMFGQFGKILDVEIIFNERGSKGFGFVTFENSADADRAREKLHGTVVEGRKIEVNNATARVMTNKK
Oligonucleotide,RBNS enrichment (R)
UCCUCUGCUUGCUGGAACAUUCUAACAUUUACACUUUUGUUAUAAGCUAUUUAAAACCAGUAAGGAGACUUGAAAUUCAGAAAAUCAACACAUUUUUAAAUGACUAACUU,0.407
AUUUUGUGCUUCUGUUAAUGUCUAGCAUUUUAAACAUAGGAUAACAUUGUUUUGGACACUGGAAUAAUAUGAUUUAUUUUCACCUGUAAAAAUGACUUCAUUGUACUUGA,0.482
UUUUAGAAAGCAGCUUACUAGUUUACCCUUGUGGUAUAAAGUAUUAUAAAUUGUUGUGAAUUUGAAGAAUCCGUCUACUGUAUUAUUGCUAAAUAUUUUGUUUAUACUAA,0.513
CCUGCUCUUUCUCUUUGGUGCCCCUUAUCUCACCCCUUCCUUGGAAUUUAAUAAGUCUCAGGCAUUUCCAAUUGUAGACUAAAACCACUCUUAGCAUCUCCUCUAGUAUU,1.22
CCCACUUUCAGAGUCGAAUCAGCUCUGAGCCUAGGACAGUGCUGGCUCUCUGAGGGCAACCAGGCCUUGUGUCCUGGUACCUGUGACACUGUUGUGGUCACAGCAGUGCC,0.249
GGAGGCUGAGGCAGGAGAAUCGCUUGAACCCGGGAGGUGGAGGUUGCGGUGAGCCAAGAUCGCACCAUUGCACUCCAGCCUGGGCAACAAGAGCGAAACUCUGUCUCAAA,0.356

# Sample 3
# Target: Max-binding protein MNT, bHLH-zipper, MAX partner unstated (MNT, Homo sapiens, UniProt Q99583, residues 220-300)
# Method: protein-binding microarray
# Form: double-stranded DNA, one strand shown
# Medium: in vitro
# Concentration: not given
# Setting: k-mer, scored over probes, only values ≥0.25
# Direction: higher = stronger binding
# Target sequence (chain): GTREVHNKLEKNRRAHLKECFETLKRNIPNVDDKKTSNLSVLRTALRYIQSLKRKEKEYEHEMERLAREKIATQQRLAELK
Oligonucleotide,E-score
CGGTCACG,0.263
TAACACGA,0.279
ATAACACG,0.383
CGTGATCC,0.285
ACATGGGT,0.353
CCCCGCAC,0.362
ACGCGGCA,0.334

# Other studies, line by line
Substance,target,assay,test system,setting,scale,measurement,value
"PhoQ, residues 284 288 289 292 302 303 SSTLSG","PhoP, residues 12 14 15 18 19 LYFRQ (Escherichia coli, UniProt P23836)","Sort-seq, measured: YFP reporter",E. coli,"PhoQ-PhoP variant library, together with: 10 µM Mg2+","baseline: high Mg2+ state, higher = stronger signaling",fold induction,4.74

# Excerpt of the above (sample 2):
Oligonucleotide,RBNS enrichment (R)
UUUUAGAAAGCAGCUUACUAGUUUACCCUUGUGGUAUAAAGUAUUAUAAAUUGUUGUGAAUUUGAAGAAUCCGUCUACUGUAUUAUUGCUAAAUAUUUUGUUUAUACUAA,0.513
CCUGCUCUUUCUCUUUGGUGCCCCUUAUCUCACCCCUUCCUUGGAAUUUAAUAAGUCUCAGGCAUUUCCAAUUGUAGACUAAAACCACUCUUAGCAUCUCCUCUAGUAUU,1.22
